# Measurements from different studies.
# Parts stem from different laboratories: compare values within a part only. Changes are numbered by the printed parent chain.

# Block 1
# Target: CCNB3, cyclin fold, Cln2 fusion (human)
# Technique: yeast growth competition, sequencing
# Sample: yeast
# Notes: weak parent motif
# Relative to: not given
# Reading: higher = stronger binding
# Starting sequence: SLBP docking peptide (human); ARYKRKLLINDFG; partner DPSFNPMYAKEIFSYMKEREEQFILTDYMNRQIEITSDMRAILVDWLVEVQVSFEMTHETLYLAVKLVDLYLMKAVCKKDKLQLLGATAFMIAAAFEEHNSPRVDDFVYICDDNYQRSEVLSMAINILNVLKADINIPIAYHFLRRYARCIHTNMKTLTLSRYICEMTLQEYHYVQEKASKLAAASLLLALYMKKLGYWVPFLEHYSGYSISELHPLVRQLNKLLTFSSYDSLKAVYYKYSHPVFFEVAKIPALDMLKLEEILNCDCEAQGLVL
Change,normalised enrichment score
ARYKRKLYINDFG [L8Y],0.212
AQYKRKLLINDFG [R2Q],0.68
ARYKRKLLINDFQ [G13Q],0.527
MRYKRKLLINDFG [A1M],0.57

# Block 2
# Target: Interferon regulatory factor 7, full length, phosphomimetic (IRF7, Homo sapiens, UniProt Q92985, residues 1-503, S101K/S471D/S472D/S475D/S476D/S477D/S483D/S484D/S487D)
# Technique: protein-binding microarray
# Form: double-stranded DNA, one strand shown
# Sample: in vitro
# Tested at: 250 nM
# Notes: 60-bp whole probe
# Together with: salmon DNA 0.4 mg/ml
# Relative to: random background probes
# Reading: higher = stronger binding
# Shared flanks, not repeated: GCCTAGCAC … GTCTTGATTCGCTTGACGCTGCTG
# Construct (chain): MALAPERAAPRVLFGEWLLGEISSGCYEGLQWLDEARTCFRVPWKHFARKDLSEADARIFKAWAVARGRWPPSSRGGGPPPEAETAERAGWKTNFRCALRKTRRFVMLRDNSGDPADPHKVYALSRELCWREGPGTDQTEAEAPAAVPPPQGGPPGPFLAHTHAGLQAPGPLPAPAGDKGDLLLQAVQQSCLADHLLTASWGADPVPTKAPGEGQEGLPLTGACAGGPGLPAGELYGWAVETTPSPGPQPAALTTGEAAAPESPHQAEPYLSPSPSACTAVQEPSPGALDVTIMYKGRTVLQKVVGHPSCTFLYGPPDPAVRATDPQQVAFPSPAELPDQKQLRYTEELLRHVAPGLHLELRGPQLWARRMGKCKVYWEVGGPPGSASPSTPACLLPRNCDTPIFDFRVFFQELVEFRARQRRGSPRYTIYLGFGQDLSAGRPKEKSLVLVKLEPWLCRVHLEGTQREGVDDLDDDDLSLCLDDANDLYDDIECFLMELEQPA
Strand,log fluorescence [z-score]
GACGATTTCAGTTTCGACACGTGCTAG,3.53
TCACATCTCTGCTCCTTACTGTGCTAG,0.621
TTAGGTTCCGGTTTCAGTTAGTGCTAG,7.97
TTAGATATCGGTTATCGATTAGTGCTA,0.663
GACGAACTGTGTATCGAGACGTGCTAG,-0.293
TTAGGTTTCCATTTCCTTTAGTGCTAG,8.27
TTAGGTCCCGGTATCGGTTAGTGCTAG,2.47
TTAGCTTTCAGTCTCGATTAGTGCTAG,1.19

# Block 3
# Target: RNA binding protein fox-1 homolog 2, RRM domain, GST-SBP tag (RBFOX2, Homo sapiens, UniProt O43251-10, residues 100-194)
# Technique: RNA Bind-n-Seq
# Form: RNA
# Sample: in vitro
# Tested at: 365 nM
# Notes: natural RNA segment, single round, ends assumed
# Relative to: no-protein control
# Reading: higher = stronger binding
Strand,RBNS enrichment (R)
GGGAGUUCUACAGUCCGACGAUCUUGCUAGGGGUGAAAGCAUUACAGAGAGAUGGAGCCAUCUAUCCAAGAAGCCUUCACUCACCUUCACUGCUGCUGUUGCAACUCGGCUGUUCUGGACUCUGAUGUGUGUGUGGAAUUCUCGGGUGCCAA,0.945
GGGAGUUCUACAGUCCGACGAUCCUCUUGAAGGGCUACCUUUUGUUUUAAUUGGUGGUGUACUUUUUUGUAUGUGGAAUUUGUCCCAUGUGCUUGCUAAAAUGUUUGGGGAUCUCCUCACACUGGUAAUGUCUUGGAAUUCUCGGGUGCCAA,1.16
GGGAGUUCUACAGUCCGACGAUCAGGAAUGUCAUAACCAUUCACACUCUAUGUCUUUCAACUCUCAUCAACAUGUUCAUCAACAUGCGUGCACAUAGACAUGAAUGCACGCCCUUCUUUCAAGGCAGAUUGAUUGGAAUUCUCGGGUGCCAA,0.563
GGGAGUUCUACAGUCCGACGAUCUCAUGCUUUUGAAGAGCAUCAGUGAUUACUUAGGGUGUAAUAUGUAAAGAUCAGACAUCUCCAAAAACAGAAAAAGUACAAGUAAACAACACACUUUCUCAUGACUUUUAUGGAAUUCUCGGGUGCCAA,0.498
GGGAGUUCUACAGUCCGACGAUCCCAGUAUUUAAGGGACCCUAACCUCCAAAAGAGGUACCCAUUGGCGCUCAACCGAAUUGCUGCUCAGGAGGUCCCCAUUGAGAUCAAGCCAGUAAACCCAUCCCCCCUGAUGGAAUUCUCGGGUGCCAA,0.46
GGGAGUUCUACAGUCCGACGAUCGAUGUUCAUCACAGUGUGGUAAGGUUGCAAAUUCAAAACAUGUCACCCAAGCUCUGUUCAUGUUUUUGUGAAUUCUAGGCUGGUGCUGCACUGAAAUAGAGCAGUAAGCUUGGAAUUCUCGGGUGCCAA,0.444

# Other studies, line by line
Molecule,target,test,system,conditions,how to read,endpoint,value
"PhoQ, residues 284 288 289 292 302 303 AGCYAI","PhoP, residues 12 14 15 18 19 IFFTR (Escherichia coli, UniProt P23836)","Sort-seq, measured: YFP reporter",E. coli,"PhoQ-PhoP variant library, together with: 10 µM Mg2+","relative to: high Mg2+ state, higher = stronger signaling",fold induction,18.1
